Published values of several laboratories.
Several values in a cell are separate wells, animals, samples, runs or records.
B1: human dermcidin; sequence looked up; chain YDPEAASAPGSGNPCHEASAAQKENAGEDPGLARQAPKPRKQRSSLLEKGLDGAKKAVGGLGKLGKDAVEDLESVGKGAVHDVKDVLDSVL
B2: human KLK7; sequence looked up; chain IIDGAPCARGSHPWQVALLSGNQLHCGGVLVNERWVLTAAHCKMNEYTVHLGSDTLGDRRAQRIKASKSFRHPGYSTQTHVNDLMLVKLNSQARLSSMVKKVRLPSRCEPPGTTCTVSGWGTTTSPDVTFPSDLMCVDVKLISPQDCTKVYKDLLENSMLCAGIPDSKKNACNGDSGGPLVCRGTLQGLVSWGTFPCGQPNDPGVYTQVCKFTKWINDTMKKHR
B3: human CDK4; sequence looked up; chain ATSRYEPVAEIGVGAYGTVYKARDPHSGHFVALKSVRVPNGGGGGGGLPISTVREVALLRRLEAFEHPNVVRLMDVCATSRTDREIKVTLVFEHVDQDLRTYLDKAPPPGLPAETIKDLMRQFLRGLDFLHANCIVHRDLKPENILVTSGGTVKLADFGLARIYSYQMALTPVVVTLWYRAPEVLLQSTYATPVDMWSVGCIFAEMFRRKPLFCGNSEADQLGKIFDLIGLPPEDDWPRDVSLPRGAFPPRGPRPVQSVVPEMEESGAQLLLEMLTFNPHKRISAFRALQHSYLHKDEGNPE
B4: human ATP citrate lyase; sequence looked up; chain MSAKAISEQTGKELLYKFICTTSAIQNRFKYARVTPDTDWARLLQDHPWLLSQNLVVKPDQLIKRRGKLGLVGVNLTLDGVKSWLKPRLGQEATVGKATGFLKNFLIEPFVPHSQAEEFYVCIYATREGDYVLFHHEGGVDVGDVDAKAQKLLVGVDEKLNPEDIKKHLLVHAPEDKKEILASFISGLFNFYEDLYFTYLEINPLVVTKDGVYVLDLAAKVDATADYICKVKWGDIEFPPPFGREAYPEEAYIADLDAKSGASLKLTLLNPKGRIWTMVAGGGASVVYSDTICDLGGVNELANYGEYSGAPSEQQTYDYAKTILSLMTREKHPDGKILIIGGSIANFTNVAATFKGIVRAIRDYQGPLKEHEVTIFVRRGGPNYQEGLRVMGEVGKTTGIPIHVFGTETHMTAIVGMALGHRPIPNQPPTAAHTANFLLNASGSTSTPAPSRTASFSESRADEVAPAKKAKPAMPQDSVPSPRSLQGKSTTLFSRHTKAIVWGMQTRAVQGMLDFDYVCSRDEPSVAAMVYPFTGDHKQKFYWGHKEILIPVFKNMADAMRKHPEVDVLINFASLRSAYDSTMETMNYAQIRTIAIIAEGIPEALTRKLIKKADQKGVTIIGPATVGGIKPGCFKIGNTGGMLDNILASKLYRPGSVAYVSRSGGMSNELNNIISRTTDGVYEGVAIGGDRYPGSTFMDHVLRYQDTPGVKMIVVLGEIGGTEEYKICRGIKEGRLTKPIVCWCIGTCATMFSSEVQFGHAGACANQASETAVAKNQALKEAGVFVPRSFDELGEIIQSVYEDLVANGVIVPAQEVPPPTVPMDYSWARELGLIRKPASFMTSICDERGQELIYAGMPITEVFKEEMGIGGVLGLLWFQKRLPKYSCQFIEMCLMVTADHGPAVSGAHNTIICARAGKDLVSSLTSGLLTIGDRFGGALDAAAKMFSKAFDSGIIPMEFVNKMKKEGKLIMGIGHRVKSINNPDMRVQILKDYVRQHFPATPLLDYALEVEKITTSKKPNLILNVDGLIGVAFVDMLRNCGSFTREEADEYIDIGALNGIFVLGRSMGFIGHYLDQKRLKQGLYRHPWDDISYVLPEHMSM

Substance | target or system | test | system | setting | scale | measurement | result
FGA (Homo sapiens, UniProt P02671) | RTKN2 (Homo sapiens, UniProt Q8IZC4) | cross-linking MS |  | added: DSSO |  | cross-linked residues | K620 to K349
B1 (human dermcidin) | PP6C (human) | co-immunoprecipitation, IP-MS | CYB5R4 knockout cells | concentration not given | relative to: CYB5R4 knockout over parental | log2 fold change | -0.4
GSGAGRETEV | construct, MBP fusion, human SCRIB, PDZ 3-4 | automated holdup | peptide, crude extract | concentration not given, uncorrected, unit not given | relative to: biotin control resin, higher = stronger binding | binding intensity | 0.628
transthyretin | SFN human | pull-down LC-MS/MS |  |  | relative to: blank | enrichment fold | 5.89
FNA / CGLSGLGVA-NH2 ([18F]FNA-labelled, C-amide) |  | gamma counting | peptide, glioblastoma mice, Harderian glands | 60 min, added: CooP blocking, 500-fold excess |  | tissue uptake | 0.3 %ID/g
PKRSFIESNV | construct, MBP fusion, human SCRIB, PDZ 3-4 | surface plasmon resonance | peptide | concentration not given | higher = stronger binding | normalised SPR binding response | 81.8 normalised RU
B2 (human KLK7) | PP6C (human) | co-immunoprecipitation, IP-MS | CYB5R4 knockout cells | concentration not given | relative to: CYB5R4 knockout over parental | log2 fold change | 2.03
Peginesatide | UT7/EPO | RT-qPCR, measured: EGR4 |  | concentration not given, 90 min, normalized to HPRT1 | relative to: vehicle | mRNA level | 6.8 fold
GSGAGSETKM | construct, MBP fusion, human SCRIB, PDZ 3-4 | automated holdup | peptide, crude extract | concentration not given, uncorrected, unit not given | relative to: biotin control resin, higher = stronger binding | binding intensity | 0.0778
cytidine monophosphate | adenosine A2A receptor thermostabilised | equilibrium dialysis LC-MS |  | concentration not given | relative to: no protein | log2 fold change | -0.222
VVVGAVGVGK | HLA-A*11:01 peptide-β2M single-chain trimer | western blot, measured: pMHC-I | peptide, 293T cells | 12 h, unit not given, added: 100 µg/mL cycloheximide | relative to: time zero | remaining protein | 0.89 and 0.923
B3 (human CDK4) | PP6C (human) | co-immunoprecipitation, IP-MS | CYB5R4 knockout cells | concentration not given | relative to: CYB5R4 knockout over parental | log2 fold change | -0.66
GEMVGQARILAQATSDLVNAIKDA | vinculin head domain Vd1 | complex rupture, AFM single-molecule force spectroscopy | peptide | single traces, C-terminal pulling, 800 nm/s |  | mean rupture force | 61.5 pN
Teicoplanin |  | measured: stability | human serum | 1 days, room temperature, high QC |  | recovery | 99.5%
colistin | Pseudomonas aeruginosa | broth microdilution | clinical isolate RKI-No_578/15 |  |  | MIC | 2 µg/mL
human USP10 | PP6C (human) | co-immunoprecipitation, IP-MS | CYB5R4 knockout cells | concentration not given | relative to: CYB5R4 knockout over parental | log2 fold change | -0.63
GSGAGKETRV | construct, MBP fusion, human SCRIB, PDZ 3-4 | automated holdup | peptide, purified PDZ protein | concentration not given, unit not given | relative to: biotin control resin, higher = stronger binding | binding intensity | 0.114
insulin |  | LC-MS/MS | prepared human sample | one freeze-thaw cycle |  | concentration | 11.2 ng/mL
PMESGICTIV | construct, MBP fusion, human SCRIB, PDZ 3-4 | automated holdup | peptide, crude extract | concentration not given, uncorrected, unit not given | relative to: biotin control resin, higher = stronger binding | binding intensity | 0.168
human GFAP | PP6C (human) | co-immunoprecipitation, IP-MS | CYB5R4 knockout cells | concentration not given | relative to: CYB5R4 knockout over parental | log2 fold change | 0.33
11-deoxycorticosterone | human CYP11B2 | stopped-flow kinetic modelling |  | 3-state conformational selection model, added: no adrenodoxin |  | Kd | 3.57 µM
MAPVLYLQDKSSN | DnaK (Escherichia coli) | fluorescence polarization | peptide | 500 µM, 10 °C, added: ATP |  | bound fraction | 99.9%
GSGAGQITKV | construct, MBP fusion, human SCRIB, PDZ 3-4 | automated holdup | peptide, crude extract | concentration not given, corrected by standard peak, unit not given | relative to: biotin control resin, higher = stronger binding | binding intensity | 0.0282
adrenomedullin |  | RP-HPLC | HALO Phenyl-hexyl column | 25 µM, acetic acid/methanol, 10 min gradient |  | retention time | 7.92 min
VVVGACGVGK | HLA-A*11:01 peptide-β2M single-chain trimer | western blot, measured: pMHC-I | peptide, 293T cells | 6 h, unit not given, added: 100 µg/mL cycloheximide | relative to: time zero | remaining protein | 0.856 and 0.875 and 0.863
B4 (human ATP citrate lyase) | PP6C (human) | co-immunoprecipitation, IP-MS | CYB5R4 knockout cells | concentration not given | relative to: CYB5R4 knockout over parental | log2 fold change | 0.71
caspofungin |  |  | adult ICU patients, mITT, serum | dose not given, Baseline |  | alkaline phosphatase | 148 U/L

Repeated from above:
Substance | target or system | test | system | setting | scale | measurement | result
GSGAGKETRV | construct, MBP fusion, human SCRIB, PDZ 3-4 | automated holdup | peptide, purified PDZ protein | concentration not given, unit not given | relative to: biotin control resin, higher = stronger binding | binding intensity | 0.114
caspofungin |  |  | adult ICU patients, mITT, serum | dose not given, Baseline |  | alkaline phosphatase | 148 U/L
